Measurements from different studies.
Each numbered part is a random draw from the data of one study; scales do not carry over between parts.

Series 1
Target: Sal-like protein 4, full length isoform A (SALL4, Homo sapiens, UniProt Q9UJQ4, residues 1-1053)
Chain of UniProt Q9UJQ4 (whole entry, looked up): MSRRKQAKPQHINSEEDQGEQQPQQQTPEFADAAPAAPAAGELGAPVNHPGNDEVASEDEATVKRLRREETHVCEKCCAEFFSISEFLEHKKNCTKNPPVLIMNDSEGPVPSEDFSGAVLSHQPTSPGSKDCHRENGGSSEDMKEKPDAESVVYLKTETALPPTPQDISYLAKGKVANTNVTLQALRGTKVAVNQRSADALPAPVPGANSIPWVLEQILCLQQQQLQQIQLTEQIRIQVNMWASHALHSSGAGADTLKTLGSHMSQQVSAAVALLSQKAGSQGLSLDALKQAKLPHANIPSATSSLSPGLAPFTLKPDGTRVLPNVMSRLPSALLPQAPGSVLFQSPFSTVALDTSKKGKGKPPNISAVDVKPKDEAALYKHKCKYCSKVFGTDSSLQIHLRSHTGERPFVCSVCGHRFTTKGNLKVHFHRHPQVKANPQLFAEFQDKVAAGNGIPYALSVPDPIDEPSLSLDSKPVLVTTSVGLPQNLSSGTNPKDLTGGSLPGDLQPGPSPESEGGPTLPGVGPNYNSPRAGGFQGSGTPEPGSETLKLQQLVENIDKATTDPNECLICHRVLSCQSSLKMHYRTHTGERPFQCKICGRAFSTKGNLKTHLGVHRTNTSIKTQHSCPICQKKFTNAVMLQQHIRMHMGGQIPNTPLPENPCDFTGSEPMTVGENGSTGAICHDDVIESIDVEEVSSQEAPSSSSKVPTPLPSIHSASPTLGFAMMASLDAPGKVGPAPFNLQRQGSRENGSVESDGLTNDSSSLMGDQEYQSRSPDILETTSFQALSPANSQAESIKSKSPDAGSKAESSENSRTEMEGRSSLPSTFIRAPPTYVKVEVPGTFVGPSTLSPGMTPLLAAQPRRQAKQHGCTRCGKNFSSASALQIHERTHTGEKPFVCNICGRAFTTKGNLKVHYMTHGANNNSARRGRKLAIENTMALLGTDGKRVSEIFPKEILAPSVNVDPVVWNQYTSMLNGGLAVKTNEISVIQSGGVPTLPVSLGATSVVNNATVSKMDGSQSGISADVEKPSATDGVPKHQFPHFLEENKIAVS
Technique: universal PBM
Molecule type: double-stranded DNA, one strand shown
Matrix: in vitro
Tested at: 600 nM
Setting: 8-mer, flanks averaged, mean of replicates
Reading: higher = stronger binding
Endpoint: E-score
AACTCGTC: 0.0112
AATACCGC: -0.119
AGACTGGG: -0.127
CCTGGATA: -0.112
ACCAGACC: -0.233
GAGTTCCC: -0.262
GGCAATAA: 0.241
GAACTACC: -0.00662

Series 2
Target: Replicase polyprotein 1ab, main protease (rep, Severe acute respiratory syndrome coronavirus 2, UniProt P0DTD1)
Observed: enzyme activity
Action: inhibitor
Setting: without DTT
Endpoint: IC50
COc1cc(C(=S)N2CCOCC2)ccc1O: 1300 nM
C=C1C(=O)[C@]23[C@H](O)[C@H]1CC[C@@H]2[C@@]12CO[C@]3(O)C[C@@H]1C(C)(C)CC[C@@H]2O: 2600 nM
S=C(S)N1CCCC1: 200 nM
Sc1nnnn1-c1ccccc1: 2400 nM

Series 3
Target: Histone acetyltransferase KAT6A, winged helix 1, GST fusion (KAT6A, Homo sapiens, UniProt Q92794, residues 1-85)
Technique: protein binding microarray
Molecule type: double-stranded DNA, one strand shown
Matrix: in vitro
Tested at: not given
Setting: 8-mer, flanks averaged, mean of 2 arrays, mostly near background
Reference: not given
Reading: higher = stronger binding
Endpoint: E-score
Residues (chain): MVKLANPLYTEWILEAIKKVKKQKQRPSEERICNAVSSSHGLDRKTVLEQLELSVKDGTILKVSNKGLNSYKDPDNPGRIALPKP
CGTCCACC: -0.0439
CTAGGGAA: -0.187
TCCGCTCA: -0.0294
ATCGATTA: -0.139
GTTTGCGA: 0.162
CGACTAAG: 0.151
GCTTGCAC: 0.0288
CACATAAG: 0.00426

Series 4
Cell line: HEK-293T
Observed: pseudovirus infection
Technique: FDA-approved drug library screen
Organism: VSV pseudotyped with SARS-CoV-2 spike
Tested at: 10 µM
Time: 16 h
Reference: vehicle-treated
Endpoint: GFP-positive cells
CC[C@@H](CO)NCCN[C@@H](CC)CO: 82.5%
CCN1CCN(C(=O)N[C@@H](C(=O)N[C@@H]2C(=O)N3[C@@H]2SC(C)(C)[C@@H]3C(=O)O)c2ccccc2)C(=O)C1=O: 76%
CC(=O)N(CC(O)CO)c1c(I)c(C(=O)NCC(O)CO)c(I)c(C(=O)NCC(O)CO)c1I (centres unmarked): 76%
Clc1ccc(C(Cn2ccnc2)OCc2csc3c(Cl)cccc23)c(Cl)c1 (centres unmarked): 101%

Series 5
Target: Replicase polyprotein 1ab, polymerase (rep, Severe acute respiratory syndrome coronavirus 2, UniProt P0DTD1)
Observed: enzyme activity
Action: inhibitor
Tested at: 20 µM
Endpoint: inhibition
O=C(O)[C@H](O)[C@@H](O)[C@H](O[C@@H]1O[C@H](CO)[C@H](O)[C@H](O)[C@H]1O)[C@H](O)CO: -7.45%
COC(=O)c1ccc(N2CCN(C)CC2)c(NC(=O)c2cccc(OC)c2)c1: -3%
CC(C)(O/N=C(\C(=O)N[C@@H]1C(=O)N2C(C(=O)[O-])=C(C[n+]3ccccc3)CS[C@H]12)c1csc(N)n1)C(=O)O: -4.81%
NC(=O)c1ccc(I)c([N+](=O)[O-])c1: -5.71%
c1ccc(C(NCCNC(c2ccccc2)c2ccccc2)c2ccccc2)cc1: -1.61%
COc1cc(-n2cnc3cc(-c4ccc(Cl)cc4)sc3c2=O)ccc1OCCN1CCCC1: -4.36%
Cn1cc(C(=O)OCC2CCN(CCNS(C)(=O)=O)CC2)c2ccccc21: 3.76%
C=CC(=O)Nc1cccc(Nc2nc(Nc3ccc(NC4CN(CCF)C4)cc3OC)ncc2C(F)(F)F)c1: 1.69%
c1ccc2sc(SN3CCOCC3)nc2c1: -1.18%
O=C(NCCCCCCNC(=O)ON=C1CCCCC1)ON=C1CCCCC1: -3.36%
CCCCc1ccc2[nH]c(NC(=O)OC)nc2c1: 1.78%
CCCCCCCC[N+](C)(C)Cc1ccccc1: -1.51%
O=C(O)C[C@H]1CC[C@H](c2ccc(NC(=O)c3nnc(Nc4ccc(F)c(F)c4)o3)cc2)CC1: 2.92%
CC(C)OC(=O)C(C)(C)Oc1ccc(C(=O)c2ccc(Cl)cc2)cc1: 2.26%
c1ccc(Oc2cccnc2)cc1: 0.02%
CS(=O)(=O)c1ccc(-c2cnc(N)c(C(=O)Nc3ccccc3)n2)cc1: 8.34%
C=C(C)[C@H]1CN[C@H](C(=O)O)[C@H]1CC(=O)O: 0.46%
CC(O)Cn1cnc2c1c(=O)n(C)c(=O)n2C (centres unmarked): -0.41%
C[C@@H](N)c1ccc(C(=O)Nc2ccnc3[nH]ccc23)cc1: 0.01%
CCN(CC)CCOC(=O)C1(c2ccc([N+](=O)[O-])cc2)CCCC1: -0.86%
